Assay results collected from several papers.
Every numbered part comes from another study and shows a few of its results, in no order.

Study 1
Target: Histone acetyltransferase KAT6A, winged helix 2, GST fusion (KAT6A, Homo sapiens, UniProt Q92794, residues 85-181)
Method: protein binding microarray
Form: double-stranded DNA, one strand shown
Medium: in vitro
Tested at: not given
Setting: 8-mer, flanks averaged, mean of 2 arrays, mostly near background
Baseline: not given
Reading: higher = stronger binding
Target sequence (chain): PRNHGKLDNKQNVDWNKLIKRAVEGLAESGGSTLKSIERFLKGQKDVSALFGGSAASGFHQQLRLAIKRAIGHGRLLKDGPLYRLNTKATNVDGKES
Oligonucleotide	E-score
AACCTTAC	-0.0338
ACGTCGTC	-0.0394
CGCTGGAC	0.183
CCCGACAA	0.254
GGCACGTA	-0.116
CGTATACC	-0.134
GACGCACC	0.0712

Study 2
Target: Protein C-ets-1 (ETS1, Homo sapiens, UniProt P14921, residues 1-441, full length assumed)
Method: protein-binding microarray
Form: double-stranded DNA, one strand shown
Medium: in vitro
Tested at: not given
Setting: k-mer, scored over probes, only values ≥0.25
Reading: higher = stronger binding
Target sequence (chain): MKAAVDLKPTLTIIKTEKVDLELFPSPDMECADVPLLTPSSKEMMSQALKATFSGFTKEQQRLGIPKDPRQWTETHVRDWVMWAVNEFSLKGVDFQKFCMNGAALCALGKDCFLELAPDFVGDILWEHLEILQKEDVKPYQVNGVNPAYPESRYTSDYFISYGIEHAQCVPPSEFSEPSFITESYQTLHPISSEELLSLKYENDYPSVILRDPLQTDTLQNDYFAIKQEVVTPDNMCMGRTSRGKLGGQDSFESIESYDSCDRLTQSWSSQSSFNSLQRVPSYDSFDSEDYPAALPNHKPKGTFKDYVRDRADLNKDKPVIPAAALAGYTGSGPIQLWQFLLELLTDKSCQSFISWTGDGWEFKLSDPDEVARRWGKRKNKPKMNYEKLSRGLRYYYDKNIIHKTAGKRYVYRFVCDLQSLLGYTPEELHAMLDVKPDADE
Oligonucleotide	E-score
TATCCTGA	0.253
CGAATCCG	0.323
CCCCGCCC	0.352
GGGGGGAA	0.282
GCCGGAAC	0.453
GAGGCGGA	0.333
GCCGGGGA	0.314
CGGAAAGA	0.401

Study 3
Target: Interferon regulatory factor 3, full length, phosphomimetic (IRF3, Homo sapiens, UniProt Q14653, residues 1-427, S386D/S396D/S398D/S402D/T404D/S405D)
UniProt Q14653, sequence (whole entry, unmodified, looked up): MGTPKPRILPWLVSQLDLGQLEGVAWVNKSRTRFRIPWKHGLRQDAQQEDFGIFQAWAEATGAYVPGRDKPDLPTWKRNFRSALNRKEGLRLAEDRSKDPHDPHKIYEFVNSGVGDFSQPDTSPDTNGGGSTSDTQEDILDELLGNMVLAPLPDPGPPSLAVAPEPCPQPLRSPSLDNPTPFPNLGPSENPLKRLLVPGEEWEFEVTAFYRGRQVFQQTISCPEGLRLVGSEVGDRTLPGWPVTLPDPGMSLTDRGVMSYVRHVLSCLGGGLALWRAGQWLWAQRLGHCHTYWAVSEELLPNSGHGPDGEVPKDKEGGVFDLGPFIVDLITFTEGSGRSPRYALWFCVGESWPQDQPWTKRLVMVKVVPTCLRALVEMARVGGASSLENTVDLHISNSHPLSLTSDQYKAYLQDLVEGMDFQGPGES
Method: protein-binding microarray
Form: double-stranded DNA, one strand shown
Medium: in vitro
Tested at: 2540 nM top
Setting: 60-bp whole probe
Together with: salmon DNA 0.4 mg/ml
Baseline: random background probes
Reading: higher = stronger binding
All sequences stand within: GCCTAGCAC … GTCTTGATTCGCTTGACGCTGCTG
Oligonucleotide	fitted relative affinity
GACGGTTTCGGTAACGGGACGTGCTAG	5.64 z-score
CATTGCCTATTTTTCCCCTGGTGCTAG	1.14 z-score
CTAGGTATCCTACTGCTTTAGTGCTAG	2.43 z-score
TTAGATCTTAGACTGGATTAGTGCTAG	-0.345 z-score
GACGGTCGCCTTCTCCTGACGTGCTAG	1.59 z-score
TCACTTTTGCTTTACTGACTGTGCTAG	2.51 z-score
TTAGGTTCCGTTTTCGGTTAGTGCTAG	6.87 z-score
TTAGATTTCAGTATAGATTAGTGCTAG	1.41 z-score
TTAGGTAACCTTTTCCTTTAGTGCTAG	3.56 z-score
TCAGCTTCCATTTTCTGACTGTGCTAG	2.66 z-score
GACGAACTGGGGGATCGAGACGTGCTA	-0.153 z-score
TTAGGTTTCCGTATCCTTTAGTGCTAG	6.77 z-score
TTAGATTTCAGTTCCGCTTAGTGCTAG	2.98 z-score
GTAGGTATCCTTTTCCTTTAGTGCTAG	8.47 z-score
TTAGAACCGGGGTTTCGATTAGTGCTA	1.41 z-score
GACGGTTTCGACTACCGGGACGTGCTA	2.75 z-score
GACAGTATCGGTCTCGGGACGTGCTAG	4.73 z-score
GACGGACTGCTACTGCTGCCGTGCTAG	-0.967 z-score

Study 4
Target: Prothrombin, mature alpha-thrombin (F2, Homo sapiens, UniProt P00734)
Method: aptamer microarray, sandwich
Form: DNA with 2'F-ANA
Medium: in vitro
Tested at: 200 nM
Setting: whole 15-mer aptamer, many near background
Together with: Cy3 exosite-II aptamer, 400 nM
Reading: higher = stronger binding
Oligonucleotide: GGTTGGTGTGGTTGG
Modification	mean fluorescence intensity [a.u.]
2'F-ANA at 1 2 3 5 6 8 9 10 11	99.2
2'F-ANA at 4 5 7 12 14 15	47.1
2'F-ANA at 2 3 4 5 7 9 13 15	63.6
2'F-ANA at 1 3 4 6 8 10 13 14 15	88.4
2'F-ANA at 2 3 4 6 7 9 10 11 12 13 14	143
2'F-ANA at 1 3 7 11 13	257
2'F-ANA at 1 3 5 6 7 8 9 10 11 12 13 14 15	57.7

Other studies, line by line
Substance	target	assay	test system	setting	how to read	quantity	result
PhoQ, residues 284 288 289 292 302 303 SASVAL	PhoP, residues 12 14 15 18 19 GQALL (Escherichia coli, UniProt P23836)	Sort-seq, refers to: YFP reporter	E. coli	PhoQ-PhoP variant library, together with: 10 µM Mg2+	baseline: high Mg2+ state, higher = stronger signaling	fold induction	3.27

A few entries again (study 3):
Oligonucleotide	fitted relative affinity
GACGGTCGCCTTCTCCTGACGTGCTAG	1.59 z-score
GACAGTATCGGTCTCGGGACGTGCTAG	4.73 z-score
GACGGACTGCTACTGCTGCCGTGCTAG	-0.967 z-score
TTAGGTTCCGTTTTCGGTTAGTGCTAG	6.87 z-score
GTAGGTATCCTTTTCCTTTAGTGCTAG	8.47 z-score
TCACTTTTGCTTTACTGACTGTGCTAG	2.51 z-score
